Assay results pooled from the literature.
Each line is one published result; not all experiments were run side by side.

Compound	assay	test system	conditions	solubility
Clc1cccc(Nc2nc(NCc3ccccc3)c3ccccc3n2)c1		aqueous buffer	pH 6.2	1e-05 mg/mL
O=c1[nH]c2cccnc2n1-c1ccc2c(c1)OC1(CCCCC1)O2		aqueous buffer	pH 7	< 2 µM
CN1CC(=Cc2cc(C(F)(F)F)ccc2Cl)C(=O)C(=Cc2cc(C(F)(F)F)ccc2Cl)C1	absorbance	water		0.00652 mg/mL
C/C(N)=N/C(=N\S(=O)(=O)c1ccc(C(F)(F)F)cc1)N1C[C@H](c2ccccc2)C(c2ccc(Cl)cc2)=N1		simulated gastric fluid	pH 1.2	7 µM
COc1cccc2c(NCc3ccccc3)nc(Nc3cccc(Cl)c3)nc12		aqueous buffer	pH 5	8e-05 mg/mL
CC1=Cc2cc(Cl)ccc2OC12Oc1ccc(Cl)cc1C=C2C	absorbance	water		0.01 mg/mL
Nc1cc2cccnc2c2ncccc12.[Cl-].[Cl-].[Ru+2].c1cnc2c(c1)ccc1cccnc12.c1cnc2c(c1)ccc1cccnc12		water		41200 µM
CCC1(CC)CC(=O)N(C2CCOc3ccc(C(=O)NC4CC(C)(C)Oc5ccccc54)cc32)C(=N)N1 (centres unmarked)		aqueous buffer	pH 7	≥ 100 µM
O=C(Nc1cc(-c2ccnc3[nH]ccc23)c(Cl)cn1)[C@H]1CCC[C@@H](NC(=O)C(F)(F)F)C1		FaSSIF	pH 6.8	24.2 µM
Cc1cc(C(=O)Nc2nc3cccc(C)c3n2[C@H]2CCCCN(C(=O)/C=C/CN(C)C)C2)ccn1		aqueous buffer		900 µM
Cc1cc(C)nc(NC(=S)N2CCN(c3ccc(C(F)(F)F)cn3)CC2)c1		PBS	6 h, pH 7.4	1.23 µM
CN(C)c1ccc(/C=C/c2cc(/C=C3\Sc4ccccc4N3CCCN3CCCC3)c3ccccc3[n+]2C)cc1	HPLC	water	24 h, 25 °C	329 µM
O=C(CN1CN(c2ccc(Cl)c(Cl)c2)C2(CCN(C(=O)c3ccc4[nH]ncc4c3)CC2)C1=O)NCC(F)(F)F		aqueous buffer	pH 6.5	2300 mg/mL
CC(=O)Nc1ccnc(N2Cc3cnn(Cc4ccc(F)cc4)c3C2)n1		water		> 100 µM
Brc1cccc(CNc2nc(NCc3ccccc3)c3ccccc3n2)c1		aqueous buffer	pH 7.4	0.00017 mg/mL
COc1ccc(C(=O)n2c(C)c(Cc3cccc(O[C@@H](C)C(=O)O)c3)c3cc(OC(F)(F)F)ccc32)cc1		aqueous buffer	pH 7.4	~75 µM

Compound	assay	test system	conditions	solubility
COc1cccc2c(NCc3ccccc3)nc(Nc3cccc(F)c3)nc12		aqueous buffer	pH 7.4	< 1e-05 mg/mL
Cc1cc(/C=C2\Sc3ccccc3N2CCCN2CCCC2)c2ccccc2[n+]1C	HPLC	water	24 h, 25 °C	6360 µM
CC(C)[C@@H](C)Nc1nc(-c2cccs2)nc(Cl)c1-c1c(F)cc(F)cc1F	mass spectrometry	PBS	pH 7.4	< 0.5 µM
COc1cc(OC)c(/N=N/c2ccc(C(=O)NO)cc2)c(OC)c1		water		> 20 µM
CN(C)C(=O)c1cccc(N2Cc3cn(Cc4ccc(F)cc4)nc3C2)c1		water		> 100 µM
O=c1c2ccccc2[se]n1CCCCCCn1[se]c2ccccc2c1=O	HPLC	simulated gastric fluid	24 h, pH 1.2, 25 °C, acidic	0.0022 mg/mL
OCC1OC(n2cnc3c(NCc4ccc(Br)s4)ncnc32)C(O)C1O (centres unmarked)		aqueous buffer	pH 6.8	0.25 mg/mL
Cc1cccc(Oc2ccc(-n3c(=O)[nH]c4cccnc43)cn2)c1C		aqueous buffer	pH 7	47 µM
CSCC[C@H](NC(=O)[C@@H](CCCCN)NC(=O)[C@H](CC(C)C)NC(=O)[C@@H](CC(N)=O)NC(=O)[C@H](CCSC)NC(=O)[C@H](NC(=O)[C@H](Cc1c[nH]c2ccccc12)NC(=O)CNC(=O)[C@H](CO)NC(=O)[C@H](Cc1ccc(O)cc1)NC(=O)[C@H](CCC(=O)O)NC(=O)[C@H](CC(N)=O)NC(=O)[C@H](CCSC)NC(=O)[C@@H](Cc1c[nH]c2ccccc12)NC(=O)[C@H](CO)NC(=O)[C@@H](CC(C)C)NC(=O)[C@H](CC(N)=O)NC(=O)[C@@H](CCSC)NC(=O)[C@H](CCC(=O)O)NC(=O)CNC(=O)[C@@H](N)CCCNC(=N)N)[C@H](C)O)C(=O)NCC(=O)N[C@@H](CCCNC(=N)N)C(=O)O		water		> 25 mg/mL
CC[C@@H]1CN(CC(=O)[O-])[C@H](CC)CN[C@H](CC)CN(CC(=O)[O-])[C@H](CC)CN1.[Mn+2]		water		240 mg/mL
CN(C)C(=O)c1cccc(N2Cc3cn(Cc4ccc(F)c(F)c4)nc3C2)c1		water		20 µM
Cc1[nH]nc2c1N=C(c1ccccc1Cl)c1cnc(N3CCOCC3)cc1N2		simulated gastric fluid	pH 1, acidic	4.52 mg/mL
CN(C)C(=O)c1cncc(N2Cc3cn(Cc4ccc(F)cc4)nc3C2)n1		water		65 µM
CN1CCCC1C(=O)NC(Cc1ccc(-n2cccn2)cc1)B(O)O (centres unmarked)	nephelometry	aqueous buffer	pH 6.8	> 200 µM
CN(C)C(=O)c1ccnc(N2Cc3cn(Cc4cc(F)cc(F)c4)nc3C2)n1		water		> 100 µM
CCCCCCCCCCCCCCCCCC(=O)Oc1c2n(cc(C(=O)NCc3c(F)cc(F)cc3F)c1=O)CC1OC3CCC(C3)N1C2=O (centres unmarked)		water	24 h	0.00045 mg/mL

For quick reference, copied from above:
Compound	assay	test system	conditions	solubility
CC(=O)Nc1ccnc(N2Cc3cnn(Cc4ccc(F)cc4)c3C2)n1		water		> 100 µM
Brc1cccc(CNc2nc(NCc3ccccc3)c3ccccc3n2)c1		aqueous buffer	pH 7.4	0.00017 mg/mL
